Assay results collected from several papers.
Protocols differ between the studies behind these lines. Numbers after ± are the reported error.

SMILES = C=C1C(=O)O[C@@H](CCC)[C@@H]1C(=O)O (racemic); tested on = OCI-Ly1; conditions = 1 µM, 120 h; quantity = viability; result = 151%
SMILES = Cc1cc(Nc2cc3ncccc3c(N[C@@H]3C[C@H]4CC[C@@H](C3)N4CCC#N)n2)n[nH]1; test system = healthy human subjects; conditions = oral, 30 mg, 2 weeks, single ascending dose; quantity = sneezing incidence; result = 0%
SMILES = CCO[C@H]1CCN(Cc2c(OC)cc(C)c3[nH]ccc23)[C@H](c2ccc(C(=O)O)cc2)C1; test system = PNH patients, active haemolysis; conditions = oral, 25 mg, 4 weeks, treatment; quantity = incidence of back pain; result = 0%
SMILES = COc1cc(C=CC(=O)O)ccc1O[C@@H]1O[C@H](C(=O)O)[C@@H](O)[C@H](O)[C@H]1O; test system = human plasma; conditions = mean; quantity = plasma concentration; result = 11100 nM
SMILES = C[C@@H](Nc1cc(F)cc(F)c1)c1cc(C(=O)N(C)C)cc2c(=O)cc(N3CCOCC3)oc12; assay = item: Fatigue; test system = advanced solid tumour patients; conditions = oral, dose not given, dose expansion; quantity = related serious adverse events; result = 0%
SMILES = CC(Oc1ccc(O)cc1)C(=O)O (centres unmarked); test system = human plasma; conditions = mean; quantity = plasma concentration; result = 347 nM
SMILES = CN1CC[C@H](c2c(O)cc(O)c3c(=O)cc(-c4ccccc4Cl)oc23)[C@H](O)C1; tested on = COS-7; conditions = 100 µM, 24 h, 0.1% DMSO, unit not given; how to read = relative to: control; quantity = apoptosis; result = 0.76 ± 0.15
SMILES = COc1ccc2nc([S+]([O-])Cc3ncc(CO)c(OC)c3C)[nH]c2c1 (centres unmarked); test system = human, dried plasma spots; conditions = 4 h; how to read = relative to: baseline; quantity = R/S enantiomer ratio; result = 9.93
SMILES = CC[C@@](N)(c1cnc(C(F)(F)F)c(Cl)c1)c1c2ccn(C3CC3)c(=O)c2nn1C; test system = rat Sprague-Dawley male, plasma; conditions = intravenous, 1 mg/kg; quantity = CL; result = 1.23 ± 0.156 mL/min/kg
SMILES = COc1ccc([C@@H](O)c2cc(-c3ncnc4cc(N5CCOCC5)ccc34)c(F)cc2Cl)nn1; test system = locally advanced rectal cancer; conditions = oral, 50 mg, with: capecitabine and radiotherapy; quantity = radiation skin injury TEAE; result = 100%
SMILES = O=C(O)CCNc1cc(N2CCc3ccccc3CC2)nc(-c2cccnc2)n1; tested on = OCI-Ly1; conditions = 0.5 µM, 120 h; quantity = viability; result = 132%
SMILES = CCn1cc(C(=O)O)c(=O)c2ccc(C)nc21; assay = starch gel membrane permeability; test system = Gram-negative envelope surrogate; conditions = 200 µM, 30 min, pH 7.4; quantity = amount permeated; result = 2.59 nmol
SMILES = Cc1ccc([C@@H]2O[C@H](CO)[C@@H](O)[C@H](O)[C@H]2O)cc1Cc1ccc(-c2ccc(F)cc2)s1; test system = Japanese type 2 diabetes patients; conditions = 400 mg, day 17, 24 h urine collection; how to read = relative to: baseline; quantity = urinary potassium excretion change; result = -0.044 mEq
SMILES = COc1c(O)cccc1OS(=O)(=O)O; test system = human plasma; conditions = mean; quantity = plasma concentration; result = 2820 nM
SMILES = CCN1/C(=C/C(C)=O)Sc2ccc(F)cc21; test system = cynomolgus monkey; conditions = oral, 30 mg/kg, 1 h post-dose; quantity = mean blood pressure; result = 85 ± 6 mmHg
SMILES = COc1ccc2c(=O)n(C)c(-c3ccccc3)nc2c1; test system = Sprague-Dawley rat, heart; conditions = oral, 30 mg/kg, 4 h; quantity = tissue concentration; result = not detected
SMILES = NC1(C(=O)N[C@@H](CCO)c2ccc(Cl)cc2)CCN(c2nc[nH]c3nccc2-3)CC1; test system = metastatic CRPC patients; conditions = 400 mg b.i.d., grade 3 to 4, treatment-related, with: enzalutamide 160 mg daily; quantity = incidence of Anaemia; result = 0%
SMILES = CC(C)(C(=O)N1CCOc2c(C#N)cncc2C1)C(F)F; assay = item: Presyncope; test system = human; conditions = oral, 15 mg twice daily, 14 days, multiple ascending dose; quantity = subjects with adverse event; result = 0%
SMILES = FC(F)(F)c1ccc(CNc2ccc(Cc3c[nH]c4ncc(Cl)cc34)cn2)cn1; assay = item: decreased appetite; test system = patients with advanced solid tumours; conditions = oral, dose not given, grade 3 and 4, possibly related to drug; quantity = adverse event incidence; result = 0%
SMILES = CN1C(C(=O)Nc2ccccn2)=C(O)c2sc(Cl)cc2S1(=O)=O; tested on = COS-7; conditions = 100 µM, 24 h, 0.1% DMSO, unit not given; how to read = relative to: control; quantity = apoptosis; result = 0.67 ± 0.11
SMILES = [H]/N=C(/N)N[C@H]1[C@H](O)[C@@H](O)[C@H](O[C@@H]2O[C@@H](C)[C@](O)(C=O)[C@H]2O[C@@H]2O[C@@H](CO)[C@H](O)[C@@H](O)[C@@H]2NC)[C@@H](N/C(N)=N\[H])[C@@H]1O; assay = starch gel membrane permeability; test system = Gram-negative envelope surrogate; conditions = 200 µM, 45 min, pH 7.4; quantity = amount permeated; result = 1.34 nmol
SMILES = Cc1nc2cccc(OCC(C)(C)C(=O)NC(C)C)c2c(N)c1C(=O)O; test system = Sprague-Dawley rat, plasma; conditions = oral, 10 mg/kg, day 1; how to read = relative to: female over male; quantity = AUC(0-last) ratio; result = 2.74 ± 0.56
SMILES = Cn1cc(Nc2nc(N)nc(-c3cccc(-n4ccc5cc(C6CC6)cc(F)c5c4=O)c3CO)n2)cn1; test system = healthy humans, fed; conditions = oral tablet, 300 mg twice daily (multiple dose), 14 (unit not given); how to read = relative to: subjects; quantity = drug-related vomiting incidence; result = 0%

Repeated from above:
SMILES = C=C1C(=O)O[C@@H](CCC)[C@@H]1C(=O)O (racemic); tested on = OCI-Ly1; conditions = 1 µM, 120 h; quantity = viability; result = 151%
SMILES = COc1ccc2nc([S+]([O-])Cc3ncc(CO)c(OC)c3C)[nH]c2c1 (centres unmarked); test system = human, dried plasma spots; conditions = 4 h; how to read = relative to: baseline; quantity = R/S enantiomer ratio; result = 9.93
